Measurements collected from several papers.
Parts stem from different laboratories: compare values within a part only. Changes are numbered by the printed parent chain.

Sample 1
Target: RING finger protein unkempt homolog, zinc fingers 1-6, GST-SBP tag (UNK, Homo sapiens, UniProt Q9C0B0, residues 30-357)
Chain of UniProt Q9C0B0 (30-357, looked up): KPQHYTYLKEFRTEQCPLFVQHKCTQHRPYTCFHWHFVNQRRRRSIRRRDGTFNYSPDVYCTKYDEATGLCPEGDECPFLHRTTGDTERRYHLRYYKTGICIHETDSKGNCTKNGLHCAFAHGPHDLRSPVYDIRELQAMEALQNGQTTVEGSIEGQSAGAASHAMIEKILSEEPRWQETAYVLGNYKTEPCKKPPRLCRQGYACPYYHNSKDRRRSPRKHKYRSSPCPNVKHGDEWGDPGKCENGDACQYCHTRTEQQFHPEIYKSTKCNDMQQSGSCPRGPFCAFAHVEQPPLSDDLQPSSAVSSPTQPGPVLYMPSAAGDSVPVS
Method: RNA Bind-n-Seq
Molecule type: RNA
Sample: in vitro
Concentration: not given
Setting: RNA with constant flanks, ends assumed
Reference: input RNA pool
Direction: higher = stronger binding
Quantity: bound/input enrichment
Shared flanks, not repeated: GGGAGUUCUACAGUCCGACGAUC … CAACAGAGGAUUGAGCAUCA
CGGCCCAUGCAGCAAAUGCAGCCCACUGCGCCAAGGAACAGCAAUUUGCGUGAAUUACCCACCGCGCCGUCACACGUGAUAGAAAUGAGCAGCAGCCGCUGCUCUGCCACGCCCUCAGCA: 0.113 ratio
CCCAAUGAGUUGCCAUAUAAUGAUUACUUUGAGUAUUUUGGACCAGACUUCAAACUGCAUAUCCGUCCUUCAAACAUGACAAACCAGAACACUCCAGAAUAUAUGGAAAAGAUAAAACAG: 0.197 ratio
AUCAGAAGAGUGAAAUCUCAUAAGGAAUUUUUGAAUAAAACAACACACCAGCUUUUGUUUGUCCGACAUCAGUUUAAAAUAGCUUUCUUCAGUGAGUUGAAACAAGAUACACAAAACGCC: 0.636 ratio
UGUGCUUUUAUAUAACCAUUUUGUUAUUUGAAUCUUGAAAAACUAGUUUUCUUAUAUUCCUACCGUCUUGGUUUUUUUAAAGGCCUUUGCAUACACCUUUAUGAUAGUUUAAGAUUGACU: 8.21 ratio
GCAUCCUGUGAAAAUACUCUUAAUACAUUAAGAUAUGCAAAUAGAGUAAAGGAGUUUGGAAUCCGUCCAUCAGACAUUCCCUUCUCACAGGGUAGUGGCAGUCGCCCUGAUCUCUCUCCU: 0.121 ratio
UGUUUUGGCUAUUUACAACACUAGUUCUGCUCUUCCAUAAAAAUCGCAUUUUAUCUGUAUCCGCCGAUCUUCACCAAACUCUUAAGCAAUACAAUAUUCCCUCUAAUGCUUUACACACGU: 1.08 ratio

Sample 2
Target: Prothrombin, mature alpha-thrombin (F2, Homo sapiens, UniProt P00734)
Method: aptamer microarray, sandwich
Molecule type: DNA with 2'F-ANA
Sample: in vitro
Concentration: 200 nM
Setting: whole 15-mer aptamer, many near background
Added: Cy3 exosite-II aptamer, 400 nM
Direction: higher = stronger binding
Quantity: mean fluorescence intensity
Strand: GGTTGGTGTGGTTGG
2'F-ANA at 2 4 5 6 7 8 9 10 11 13 14: 63.5 a.u.
2'F-ANA at 3 4 5 7 13 14 15: 51.6 a.u.
2'F-ANA at 2 3 6 7 9 10 11 14: 234 a.u.
2'F-ANA at 2 3 4 5 6 8 9 10 11 12 13 14: 59.3 a.u.
2'F-ANA at 4 5 7 9 12 14 15: 46.2 a.u.
2'F-ANA at 1 3 6 9 13 14 15: 71.3 a.u.
2'F-ANA at 1 2 4 5 11 12 14: 48.5 a.u.
2'F-ANA at 1 2 4 5 10 15: 48.9 a.u.

Sample 3
Target: CCNB1, cyclin fold, Cln2 fusion (human)
Method: yeast growth competition, sequencing
Sample: yeast
Setting: strong parent motif
Reference: not given
Direction: higher = stronger binding
Quantity: normalised enrichment score
Parent: RBL2 docking peptide (human); STTRRRLFVENDS
STTRRRLFVENDN [S13N]: 0.321
STTRRRLFVENDD [S13D]: 2.06
STWRRRLFVENDS [T3W]: 0.823
FTTRRRLFVENDS [S1F]: 1.37
STTRVRLFVENDS [R5V]: 0.735
STTRRRLFYENDS [V9Y]: 1.12
STQRRRLFVENDS [T3Q]: 0.663
STTRRRLEVENDS [F8E]: 1.08
STTRRRLFVTNDS [E10T]: 0.174
STTRRRLFVEDDS [N11D]: 2.06

Single results of other studies
PhoQ, residues 284 288 289 292 302 303 ALASRC
fold induction (PhoP, residues 12 14 15 18 19 SEGLL (Escherichia coli, UniProt P23836); Sort-seq, refers to: YFP reporter; E. coli; PhoQ-PhoP variant library, added: 10 µM Mg2+; reference: high Mg2+ state, higher = stronger signaling): 9.09

For quick reference, copied from above (sample 1):
AUCAGAAGAGUGAAAUCUCAUAAGGAAUUUUUGAAUAAAACAACACACCAGCUUUUGUUUGUCCGACAUCAGUUUAAAAUAGCUUUCUUCAGUGAGUUGAAACAAGAUACACAAAACGCC: 0.636 ratio
UGUGCUUUUAUAUAACCAUUUUGUUAUUUGAAUCUUGAAAAACUAGUUUUCUUAUAUUCCUACCGUCUUGGUUUUUUUAAAGGCCUUUGCAUACACCUUUAUGAUAGUUUAAGAUUGACU: 8.21 ratio
